Published values gathered from unrelated publications.
Every numbered part comes from another study and shows a few of its results, in no order. Values joined by “and” are separate records of one study, mostly repeats; a detail may differ. Positions count from the first letter of the parent shown.
Chain of UniProt O75582 (whole entry, looked up): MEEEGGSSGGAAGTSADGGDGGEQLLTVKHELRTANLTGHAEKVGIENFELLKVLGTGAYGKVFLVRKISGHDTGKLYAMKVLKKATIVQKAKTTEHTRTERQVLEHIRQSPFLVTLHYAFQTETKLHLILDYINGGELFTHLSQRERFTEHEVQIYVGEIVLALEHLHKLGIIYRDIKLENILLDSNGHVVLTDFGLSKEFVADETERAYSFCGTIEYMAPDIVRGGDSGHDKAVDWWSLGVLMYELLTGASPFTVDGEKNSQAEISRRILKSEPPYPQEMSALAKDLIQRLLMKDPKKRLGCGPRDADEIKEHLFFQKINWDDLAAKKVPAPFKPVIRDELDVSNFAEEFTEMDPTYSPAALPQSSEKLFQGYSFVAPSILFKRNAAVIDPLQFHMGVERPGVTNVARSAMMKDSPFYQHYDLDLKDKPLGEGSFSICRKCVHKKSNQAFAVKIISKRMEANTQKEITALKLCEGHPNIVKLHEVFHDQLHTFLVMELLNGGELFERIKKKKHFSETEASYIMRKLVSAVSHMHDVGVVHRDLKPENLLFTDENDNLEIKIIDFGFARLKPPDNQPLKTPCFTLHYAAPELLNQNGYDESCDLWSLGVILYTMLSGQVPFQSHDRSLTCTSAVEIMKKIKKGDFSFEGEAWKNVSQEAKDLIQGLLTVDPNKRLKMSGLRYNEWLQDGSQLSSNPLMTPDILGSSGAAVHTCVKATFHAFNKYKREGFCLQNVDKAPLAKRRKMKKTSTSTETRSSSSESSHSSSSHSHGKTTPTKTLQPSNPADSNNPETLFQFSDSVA

Series 1
Target: CCND1, cyclin fold, Cln2 fusion (human)
Technique: yeast growth competition, sequencing
Sample: yeast
Notes: strong parent motif
Baseline: not given
Direction: higher = stronger binding
Starting sequence: viral docking peptide; YKVKRRLVFGADD
Substitution | normalised enrichment score
K4F | 0.0714
K4M | 0.22
Y1A | 1.24
R6G | -0.179
K2I | 0.859
R5A | 0.524
F9R | -0.538
K4N | 1.91

Series 2
Target: HLA class I histocompatibility antigen, C alpha chain, allele C*04:01 (Homo sapiens, UniProt P10321)
Observed: peptide-MHC binding
Molecule type: peptide
Concentration: concentration not given
Sequence | binding
TTIPTNLFR | inactive
RARRHLAAL | inactive
YTTDVNQLY | inactive
TEAEKWPFF | inactive
RQIRMTSTI | inactive
SARRRHLVF | inactive
HEWKIPLLI | inactive
HELSLFWPL | inactive

Further values, each from its own experiment
Compound | target or system | observed | technique | concentration | with | endpoint | value
CC[C@H](C)c1nc2cc(Nc3ccnc4ccc(S(=O)(=O)C(C)C)cc34)ccc2s1.Cl | HT-29 | necroptosis protection | CCK-8 | 0.156 µM | TNF-α SMAC mimetic zVAD | viability | 19.8% and 12% and 16.8% and 15.8%
Cn1cncc1[C@](O)(COc1ccc(C#N)cc1-c1ccc(OC(F)(F)F)cc1)c1ccc(C#N)cc1 | Ribosomal protein S6 kinase alpha-5, N-terminal kinase domain (RPS6KA5, Homo sapiens, UniProt O75582) | cell-free assay | competition with immobilised ligand | 1 µM |  | remaining binding | 94%
CC(C)S(=O)(=O)c1ccc2nccc(Nc3ccc4scnc4c3)c2c1 | L929 | necroptosis protection | CCK-8 | 10 µM | TNF-α plus zVAD | viability | 71.7%

Repeated from above (series 1):
Substitution | normalised enrichment score
R6G | -0.179
F9R | -0.538
K4M | 0.22
